Published values gathered from unrelated publications.
Each line is one published result; not all experiments were run side by side.
Target: Serine/threonine-protein kinase 4 (STK4, Homo sapiens, UniProt Q13043)
Residues used in one study (Q13043 1-487): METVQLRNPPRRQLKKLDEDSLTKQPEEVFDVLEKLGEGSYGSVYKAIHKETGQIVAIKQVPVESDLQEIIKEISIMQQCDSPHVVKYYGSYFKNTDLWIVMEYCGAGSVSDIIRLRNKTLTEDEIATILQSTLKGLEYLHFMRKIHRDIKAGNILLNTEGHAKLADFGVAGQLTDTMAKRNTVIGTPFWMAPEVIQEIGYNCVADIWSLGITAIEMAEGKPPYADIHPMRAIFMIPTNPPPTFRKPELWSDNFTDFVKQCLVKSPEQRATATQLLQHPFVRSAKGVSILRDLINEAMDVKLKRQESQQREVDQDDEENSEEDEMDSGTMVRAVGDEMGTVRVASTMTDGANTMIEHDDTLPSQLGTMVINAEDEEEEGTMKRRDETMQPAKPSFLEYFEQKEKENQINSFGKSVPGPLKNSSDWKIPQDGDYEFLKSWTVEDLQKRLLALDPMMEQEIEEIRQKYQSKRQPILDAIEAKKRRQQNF

CNc1ncc2c(/C=C/C(=O)N3CCC(OC)CC3)nn(Cc3cccc(C(F)(F)F)c3)c2n1
remaining activity (kinase activity, inhibitor; 1 µM; baseline: untreated control): 103%

C1=C/COCc2cc(ccc2OCCN2CCCC2)Nc2nccc(n2)-c2cccc(c2)COC/1
percent of control (concentration not given, gene name MST1): 100%

CC[C@@H]1[C@H](F)C(=O)N[C@@H]1COc1nccc2cc(C(N)=O)c(OC)cc12
inhibition (ATP-site probe binding, ActivX profiling, measured: MST1; THP-1 cell lysate; 0.2 mM, Lys1 site): -2.3%

COc1cc(F)ccc1-c1ncnc(Nc2cccc(C[S@](C)(=N)=O)c2)n1
remaining activity (kinase activity; 10 µM, together with: 10 µM ATP): 94%

C=CC(=O)N1CCC(C(=O)NCC(=O)N2CCN(c3nc(-c4cnc(N)nc4C(F)F)nc(N4CCOCC4)n3)CC2)CC1
remaining binding (KINOMEscan; 1 µM): 92%

O=C(NC1CCC1)c1ccc2nc(-c3cccc(NS(=O)(=O)NCCN4CCCCC4)c3)cn2c1
remaining activity (enzyme activity; 10 µM): 95%

CCCOc1ccc(OC)c(F)c1C(=O)c1ccc(C(=O)N[C@@H]2CNC[C@H]2NC(=O)c2ccc3[nH]ncc3c2)cc1
remaining activity (enzyme activity; 10 µM): 88%

Cc1cc(Nc2cc(N3CCN(C)CC3)nc(Sc3ccc(NC(=O)C4CC4)cc3)n2)[nH]n1
remaining activity (kinase activity, KinaseProfiler; 0.03 µM, species human; baseline: control): 94%

[2H]c1cc(C)c(NC(=O)c2cnc(Nc3cc(N4CCCCC4)nc(C)n3)s2)c(Cl)c1
inhibition (0.01 µM): < 30%

CCN(CC)c1ccc(C2=NNC(=O)CC2C)cc1[N+](=O)[O-] (stereo not drawn)
remaining activity (enzyme activity, inhibitor; 10 µM; baseline: vehicle): 101%

C[C@@H](c1ccc(-n2cnc3c(N)ncnc32)cc1)N1CCc2nn(C)c(Cc3ccccc3)c2C1=O
remaining binding (KINOMEscan; 0.1 µM; baseline: DMSO control): 97%

C=CC(=O)N1CCC(COCC(=O)N2CCN(c3nc(-c4cnc(N)nc4C(F)F)nc(N4CCOC[C@@H]4C)n3)CC2)CC1
remaining binding (KINOMEscan; 1 µM; baseline: DMSO control): 100%

A few entries again:
C[C@@H](c1ccc(-n2cnc3c(N)ncnc32)cc1)N1CCc2nn(C)c(Cc3ccccc3)c2C1=O
remaining binding (KINOMEscan; 0.1 µM; baseline: DMSO control): 97%
